Results pooled from the literature.
Numbered parts are unrelated; each lists some results of a single study. Positions count from the first letter of the parent shown.

Sample 1
Target: CCND2, cyclin fold, Cln2 fusion (human)
Method: yeast growth competition, sequencing
Medium: yeast
Notes: weak parent motif
Relative to: not given
Reading: higher = stronger binding
Measurement: normalised enrichment score
Parent: CDC6 docking peptide (human); TLKGRRLVFDNQL
R5S: -0.389
L2V: 0.513
K3A: 0.0553
L2D: -0.0154
T1K: 0.342

Sample 2
Target: ABI1, truncated, D143A, DHFR fusion (Arabidopsis thaliana)
Method: DHFR PCA, deep sequencing
Medium: yeast
Notes: methotrexate growth selection, single substitutions
Added: (+)-ABA 0.032 µM
Relative to: wild-type fitted maximum
Reading: higher = stronger binding
Measurement: relative binding score
Parent: PYL1, truncated, DHFR fusion (Arabidopsis thaliana); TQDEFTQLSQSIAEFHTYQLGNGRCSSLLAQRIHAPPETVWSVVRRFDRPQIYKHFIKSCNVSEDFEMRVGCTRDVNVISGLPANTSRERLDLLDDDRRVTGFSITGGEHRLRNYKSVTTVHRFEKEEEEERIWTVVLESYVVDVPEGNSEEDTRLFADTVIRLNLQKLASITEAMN; partner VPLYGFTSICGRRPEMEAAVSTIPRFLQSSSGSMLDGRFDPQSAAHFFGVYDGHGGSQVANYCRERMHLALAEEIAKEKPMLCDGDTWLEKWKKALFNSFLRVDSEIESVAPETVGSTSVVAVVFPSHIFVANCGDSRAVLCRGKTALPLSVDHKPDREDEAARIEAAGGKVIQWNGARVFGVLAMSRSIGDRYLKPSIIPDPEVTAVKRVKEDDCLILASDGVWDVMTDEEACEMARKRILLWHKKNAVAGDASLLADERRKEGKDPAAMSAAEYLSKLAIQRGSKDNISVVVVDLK
N165E: 4.51%
N85M: 63.8%
S63E: 21.2%

Sample 3
Target: Histone acetyltransferase KAT6A, winged helix 2, GST fusion (KAT6A, Homo sapiens, UniProt Q92794, residues 85-181)
Method: protein binding microarray
Form: double-stranded DNA, one strand shown
Medium: in vitro
Tested at: not given
Notes: 8-mer, flanks averaged, mean of 2 arrays, mostly near background
Relative to: not given
Reading: higher = stronger binding
Measurement: E-score
Residues (chain): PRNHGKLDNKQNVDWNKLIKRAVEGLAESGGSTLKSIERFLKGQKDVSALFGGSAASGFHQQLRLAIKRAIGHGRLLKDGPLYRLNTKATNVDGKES
AATGTGAA: 0.00626
GAAAAGTA: -0.11
AGTGATAA: -0.204
CGCCGGAG: 0.063
GAGTCCGC: -0.00864
CGAGAGGC: -0.053
CCTCGCGA: 0.0169
AACTCCGA: 0.123

Single results of other studies
PhoQ, residues 284 288 289 292 302 303 AGGCYF
fold induction (PhoP, residues 12 14 15 18 19 SEGLL (Escherichia coli, UniProt P23836); Sort-seq, refers to: YFP reporter; E. coli; PhoQ-PhoP variant library, added: 10 µM Mg2+; relative to: high Mg2+ state, higher = stronger signaling): 12.5

Some of these lines once more (sample 1):
R5S: -0.389
